Results from different studies.
Protocols differ between the studies behind these lines. ± marks the error that the study gave.
Fibroin-modulator-binding protein-1: Fibroin-modulator-binding protein-1 99-193 (Bombyx mori, UniProt Q5FBS0)
SPT15/TOA1/TOA2/SUA7 1-240; 1-286; 1-122; 1-345: SPT15/TOA1/TOA2/SUA7 1-240; 1-286; 1-122; 1-345 (Saccharomyces cerevisiae)
Chain of UniProt P0A7G6 (whole entry, unmodified, looked up): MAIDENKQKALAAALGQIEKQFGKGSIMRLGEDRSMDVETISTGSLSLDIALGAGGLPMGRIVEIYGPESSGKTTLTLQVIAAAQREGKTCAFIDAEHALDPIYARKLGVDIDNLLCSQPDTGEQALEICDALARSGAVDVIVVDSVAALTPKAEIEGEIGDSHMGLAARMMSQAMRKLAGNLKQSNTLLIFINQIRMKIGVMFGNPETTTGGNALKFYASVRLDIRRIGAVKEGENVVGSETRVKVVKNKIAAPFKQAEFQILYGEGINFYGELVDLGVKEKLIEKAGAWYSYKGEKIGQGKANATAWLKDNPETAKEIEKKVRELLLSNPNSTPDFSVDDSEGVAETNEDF

Substance | tested on | assay | system | conditions | how to read | endpoint | value
ATTAATTAATTA (dsDNA) | Fibroin-modulator-binding protein-1 | ITC | double-stranded DNA, one strand shown | – | – | Kd | 805 ± 64.4 nM
CTCAGGAATTCCTATAAAGTAATGTGGAGCTCAGTTCAAGTCAATCGGTCC (dsDNA; 5'-amino-C6 primer) | SPT15/TOA1/TOA2/SUA7 1-240; 1-286; 1-122; 1-345 | array | double-stranded DNA, one strand shown | TBP:TFIIA:TFIIB ternary complex | – | Kd | 1.55 ± 0.12 nM
GAAGGAAGGAAG (dsDNA) | Fibroin-modulator-binding protein-1 | ITC | double-stranded DNA, one strand shown | – | – | Kd | 5610 ± 529 nM
TCCTGAAGGGGCGACCTAGCTTGGTCCTATCGTCGTCAAGTCAATCGGTCC (dsDNA; 5'-amino-C6 primer) | SPT15/TOA1/TOA2/SUA7 1-240; 1-286; 1-122; 1-345 | array | double-stranded DNA, one strand shown | TBP:TFIIA:TFIIB ternary complex | – | Kd | 3.61 ± 1.04 nM
GGTGGTGGTGGTGGTGGT (ssDNA) | recA full length assumed F204E (Escherichia coli, UniProt P0A7G6) | fluorescence anisotropy | single-stranded DNA | with: ATPγS | – | binding | binds
GGGAGAACUUCGACCAGAAGUGCCAUAAGCAUACGCAACAAACUCGCCUGCCUUGCUUAGUAUGUGCGCAUACAUGGAUCCUC (ssRNA; 2'-fluoro pyrimidines) | integrin alphaV/beta3 31-992/27-718 (Homo sapiens) | SPR | RNA | with: MnCl2 1 mM | higher = more binding | relative binding | 55.5 RU
TCCTGAAGGGGCGACTATAAAAGGTCCTATCGTCGTCAAGTCAATCGGTCC (dsDNA; 5'-amino-C6 primer) | SPT15/TOA1/TOA2/SUA7 1-240; 1-286; 1-122; 1-345 | array | double-stranded DNA, one strand shown | TBP:TFIIA:TFIIB ternary complex | – | Kd | 3.08 ± 1 nM
GGGAGAACUUCGACCAGAAGGCUGUGUCUACGUCCGGAUUGGGGACCUGCACGGCCCAUGUAUGUGCGCAUACAUGGAUCCUC (ssRNA; 2'-fluoro pyrimidines) | integrin alphaV/beta3 31-992/27-718 (Homo sapiens) | SPR | RNA | with: MnCl2 1 mM | higher = more binding | relative binding | 260 RU
colistin | Pseudomonas aeruginosa | broth microdilution | clinical isolate RKI-No_1/16 | – | – | MIC | 1 µg/mL
GGGAGAACUUCGACCAGAAGAUUCCAGAGAGCGACACAUUACGCGAAACACUCGCCCGCCUAUGUGCGCAUACAUGGAUCCUC (ssRNA; 2'-fluoro pyrimidines) | integrin alphaV/beta3 31-992/27-718 (Homo sapiens) | SPR | RNA | with: MnCl2 1 mM | higher = more binding | relative binding | 45.8 RU
Peginesatide | UT7/EPO | tyrosine phosphorylation, LC-MS/MS phosphoproteomics, GluC, item: TNFRSF19 tyrosine 378 | – | 10 nM, 15 min, with: 10 U/mL EPO | baseline: vehicle | phosphorylation level | 2.5 fold
ACGTACGTACGT (dsDNA) | Fibroin-modulator-binding protein-1 | ITC | double-stranded DNA, one strand shown | – | – | Kd | 4820 ± 833 nM
GGGAGAACUUCGACCAGAAGUAGCUCAUAACGACCAAAACGACCCAGCAGUUCCUUUCGUUAUGUGCGCAUACAUGGAUCCUC (ssRNA; 2'-fluoro pyrimidines) | integrin alphaV/beta3 31-992/27-718 (Homo sapiens) | SPR | RNA | with: MnCl2 1 mM | higher = more binding | relative binding | 21.6 RU
GCAGGCAGGCAG (dsDNA) | Fibroin-modulator-binding protein-1 | ITC | double-stranded DNA, one strand shown | – | – | Kd | 10800 nM
GGGAGAACUUCGACCAGAAGGUACUACGCCACAACGAACCCCGGCCUGUACCUUUCCGUAUAUGUGCGCAUACAUGGAUCCUC (ssRNA; 2'-fluoro pyrimidines) | integrin alphaV/beta3 31-992/27-718 (Homo sapiens) | SPR | RNA | with: MnCl2 1 mM | higher = more binding | relative binding | 99.7 RU
DNA 1 TGGGTGGGTAGGGTGGGTAGGGGAGGAT / DNA 2 ATCCTCCCCTA (DNA; intramolecular parallel G4, 5' overhang, 11-bp duplex) | REV1 330-833 M407L (Homo sapiens, UniProt Q9UBZ9) | FP | folded DNA | KCl 100 mM | – | Kd | 5.3 ± 1.8 nM
QGRWDHETIV | human MAGI1-3/6 PDZ construct (MBP fusion) | surface plasmon resonance | peptide | concentration not given | higher = stronger binding | normalised SPR binding response | 25.9 normalised RU
AATCAATCAATC (dsDNA) | Fibroin-modulator-binding protein-1 | ITC | double-stranded DNA, one strand shown | – | – | Kd | 2430 ± 269 nM
DNA 1 CACTGGCCGTCTTACGGTCGCTCTGCTCGACG / DNA 2 CGACCGTAAGACGGCCAGTG (dsDNA; 20 bp, 3' 12 nt overhang) | RECQL 63-592 M429A (Bos taurus, UniProt A0JN36) | fluorescence anisotropy | double-stranded DNA | with: Mg2+ 3 mM | – | Kd | 19.3 ± 4.1 nM
PMESGICTIV | human SCRIB PDZ3-4 tandem (MBP fusion) | automated holdup | peptide, crude extract | concentration not given, corrected by standard peak, unit not given | baseline: biotin control resin, higher = stronger binding | binding intensity | 0.113

Repeated from above:
Substance | tested on | assay | system | conditions | how to read | endpoint | value
GGTGGTGGTGGTGGTGGT (ssDNA) | recA full length assumed F204E (Escherichia coli, UniProt P0A7G6) | fluorescence anisotropy | single-stranded DNA | with: ATPγS | – | binding | binds
GGGAGAACUUCGACCAGAAGUGCCAUAAGCAUACGCAACAAACUCGCCUGCCUUGCUUAGUAUGUGCGCAUACAUGGAUCCUC (ssRNA; 2'-fluoro pyrimidines) | integrin alphaV/beta3 31-992/27-718 (Homo sapiens) | SPR | RNA | with: MnCl2 1 mM | higher = more binding | relative binding | 55.5 RU
TCCTGAAGGGGCGACTATAAAAGGTCCTATCGTCGTCAAGTCAATCGGTCC (dsDNA; 5'-amino-C6 primer) | SPT15/TOA1/TOA2/SUA7 1-240; 1-286; 1-122; 1-345 | array | double-stranded DNA, one strand shown | TBP:TFIIA:TFIIB ternary complex | – | Kd | 3.08 ± 1 nM
